Published values pooled from the literature.
Protocols differ between the studies behind these lines. Numbers after ± are the reported error.
Cell line: MDA-MB-231

O=C(NO)c1ccc(Cn2cc(Cn3cnc4ccc(Cl)cc4c3=O)nn2)cc1  IC50 (cell growth or viability, MTT; 48 h): 3.64 µM
CC(=O)c1nn(-c2ccc(Cl)cc2[N+](=O)[O-])/c(=N/N=C(\C)c2ccc(NC(=O)c3cccnc3)cc2)s1  IC50 (cytotoxicity, MTT; 24 h): 7.9 ± 0.6 µM
O=C(CN1CCN(c2ccc(Cl)cc2)CC1)Nc1ccc(C(=O)C=Cc2ccccc2)cc1  IC50 (cell growth or viability, MTT): 32.8 µM
CC(=O)OC[C@@H]1O[C@H](n2cc(Cn3ccc4nc(-c5ccc(F)cc5)cc(=O)n43)nn2)[C@@H](OC(C)=O)[C@H](OC(C)=O)[C@H]1OC(C)=O (stereo in doubt)  IC50 (cell growth or viability, MTT; 72 h): 54.9 µM
O=C(/C=C/c1ccc(Cn2cc(Cn3cnc4cc(F)ccc4c3=O)nn2)cc1)NO  IC50 (cell growth or viability, MTT; 48 h): 7.17 µM
COc1cc(/C=C/C(=O)N2CCC=CC2=O)cc(OC)c1OC  IC50 (cell growth or viability, MTT): 3.4 µM
COC(=O)c1c(-c2ccc(Br)cc2)c2n(c1C(=O)OC)CCn1cccc1-2  IC50 (cell growth or viability, MTT; 48 h): 82.7 µM
O=c1c(O)c(-c2ccc(O)c(O)c2)oc2cc(O)cc(O)c12  IC50 (cell growth or viability, trypan blue; 72 h): 101 µM
O=C(/C=C/c1ccc(Cn2cc(Cn3cnc4ccc(F)cc4c3=O)nn2)cc1)NO  IC50 (cell growth or viability, MTT; 48 h): 4.45 µM
COCCOc1cc2ncnc(Nc3cccc(-c4cn(CCOCCOCCOCCNC(=S)NCc5ccc(S(N)(=O)=O)cc5)nn4)c3)c2cc1OCCOC  IC50 (cell proliferation, flow cytometry cell count; 72 h, hypoxia 1% O2): ~190 µM
CCn1c[n+](CC)c2ccc(C(=O)OC)cc21  IC50 (cell growth or viability, crystal violet; 96 h): > 100 µM
COc1ccc(N2CCN(CC(=O)Nc3ccc(C4=NN(C(C)=O)C(c5ccccc5)C4)cc3)CC2)cc1 (stereo not drawn)  IC50 (cell growth or viability, MTT): 25.7 µM
COc1cc2c(cc1O)CC[C@@H]1[C@@H]2CC[C@]2(C)[C@@H](O)CC[C@@H]12  IC50 (cell proliferation, MTT; 48 h): 1.27 µM
COc1cc(-c2c3n(c4c(=O)[nH]nc(O)c24)CCn2cccc2-3)cc(OC)c1OC  IC50 (cell growth or viability, MTT; 48 h): 67.4 µM
O=C(NO)c1ccc(NC(=O)[C@@H](NC(=O)c2cccc(Br)c2)c2ccccc2)cc1  IC50 (cell growth or viability, MTT; 48 h): 4.47 µM
COc1ccc(N2CCN(CC(=O)Nc3ccc(C4=NN(C(C)=O)C(c5ccco5)C4)cc3)CC2)cc1 (stereo not drawn)  IC50 (cell growth or viability, MTT): 5.97 µM
O=C(COc1ccc(C2=Nn3c(nnc3-c3ccccc3)SC2)cc1)NCCCCNC(=O)COc1ccc(C2=Nn3c(nnc3-c3ccccc3)SC2)cc1  IC50 (cell growth or viability, MTT): 15 µM
COc1ccc(C2CC(c3ccc(NC(=O)CN4CCN(c5ccc(Cl)cc5)CC4)cc3)=NN2C(C)=O)cc1 (stereo not drawn)  IC50 (cell growth or viability, MTT): 89.4 µM
COCCOc1cc2ncnc(Nc3cccc(-c4cn(CCOCCOCCOCCNC(=S)Nc5ccc(S(N)(=O)=O)cc5)nn4)c3)c2cc1OCCOC  IC50 (cell proliferation, flow cytometry cell count; 72 h, hypoxia 1% O2): 30 µM
C[C@@H]1O[C@@H](OC(=O)/C=C/c2ccc(O)cc2)[C@H](OC(=O)/C=C/c2ccc(O)c(O)c2)[C@H](O)[C@H]1O (relative stereo)  IC50 (cell growth or viability, MTT): 13.3 µM
O=c1[nH]nc(O)c2c(-c3ccc(F)cc3)c3n(c12)CCn1cccc1-3  IC50 (cell growth or viability, MTT; 48 h): 70.6 µM
COc1ccc(N2CCN(CC(=O)Nc3ccc(C4=NN(C(C)=O)C(c5cc(OC)c(OC)c(OC)c5)C4)cc3)CC2)cc1 (stereo not drawn)  IC50 (cell growth or viability, MTT): 2.89 µM
O=C1C[C@@H](c2ccc(O)cc2)Oc2cc(O)cc(O)c21  IC50 (cell growth or viability, trypan blue; 72 h): > 200 µM
O=C(COc1ccc(-c2cnc3ccccc3n2)cc1)NCCCNC(=O)COc1ccc(-c2cnc3ccccc3n2)cc1  IC50 (cell viability, MTT): > 50 µM
O=c1[nH]nc(O)c2c(-c3cccc([N+](=O)[O-])c3)c3n(c12)CCn1cccc1-3  IC50 (cell growth or viability, MTT; 48 h): 13.1 µM
O=C(COc1ccc(C2=Nn3c(Cc4ccccc4)nnc3SC2)cc1)NCCNC(=O)COc1ccc(C2=Nn3c(Cc4ccccc4)nnc3SC2)cc1  IC50 (cell growth or viability, MTT): 29.2 µM
O=C(/C=C/c1ccc(Cn2cc(Cn3cnc4cc(Br)ccc4c3=O)nn2)cc1)NO  IC50 (cytotoxicity, MTT; 48 h): 10.2 ± 1.98 µM
Cc1nnc2n1N=C(c1ccc(OCC(=O)NCCCNC(=O)COc3ccc(C4=Nn5c(C)nnc5SC4)cc3)cc1)CS2  IC50 (cell growth or viability, MTT): 3.01 µM
Cc1ccccc1-c1c2n(c3c(=O)[nH]nc(O)c13)CCn1cccc1-2  IC50 (cell growth or viability, MTT; 48 h): 66.2 µM
O=C(COc1ccccc1C1=Nn2cnnc2SC1)NCCCCNC(=O)COc1ccccc1C1=Nn2cnnc2SC1  IC50 (cell growth or viability, MTT): 0.86 µM
COc1ccc(-c2cc(=O)n3c(ccn3Cc3cn([C@H]4O[C@@H](COC(C)=O)[C@H](OC(C)=O)[C@@H](OC(C)=O)[C@@H]4OC(C)=O)nn3)n2)cc1 (stereo in doubt)  IC50 (cell growth or viability, MTT; 72 h): 27.7 µM
COc1cc(-c2c3n(c4c(=O)[nH]nc(O)c24)CCn2cccc2-3)ccc1O  IC50 (cell growth or viability, MTT; 48 h): 15.1 µM
COc1cc(C2CC(c3ccc(NC(=O)CN4CCN(c5ccc(Cl)cc5)CC4)cc3)=NN2C(C)=O)cc(OC)c1OC (stereo not drawn)  IC50 (cell growth or viability, MTT): 33.8 µM
CC/C(=C(\c1ccccc1)c1ccc(OCCN(C)C(=O)CCCCOc2ccc3[nH]cc(CCNC(C)=O)c3c2)cc1)c1ccccc1  IC50 (cell survival, MTT; day 9, dosed days 2, 4, 7): 11.6 µM
CCn1[c](=[Au-2]([Cl])([Cl])[Cl])n(CC)c2ccccc21  IC50 (cell growth or viability, crystal violet; 96 h): 6.7 µM
O=C(NO)c1ccc(Cn2cc(Cn3cnc4cc(F)ccc4c3=O)nn2)cc1  IC50 (cell growth or viability, MTT; 48 h): 7.47 µM
O=C(COc1ccc(C2=Nn3c(nnc3-c3ccccc3)SC2)cc1)NCCCNC(=O)COc1ccc(C2=Nn3c(nnc3-c3ccccc3)SC2)cc1  IC50 (cell growth or viability, MTT): 10.9 µM
O=C(NO)c1ccc(NC(=O)[C@@H](NC(=O)c2ccccc2)c2ccccc2)cc1  IC50 (cell growth or viability, MTT; 48 h): 6.22 µM
O=C(/C=C/c1ccc(Cn2cc(Cn3cnc4ccccc4c3=O)nn2)cc1)NO  IC50 (cell growth or viability, MTT; 48 h): 7.19 µM
COc1cccc(-c2c3n(c4c(=O)[nH]nc(O)c24)CCn2cccc2-3)c1  IC50 (cell growth or viability, MTT; 48 h): 64.5 µM
N#CC(C(=O)Nc1cccc(C(F)(F)F)c1)=C1Sc2nc3ccc(S(=O)(=O)N4CCCC4)cc3nc2S1  IC50 (cell growth or viability, MTT; 24 h): 7.66 µM
COc1ccc(C=CC(=O)c2ccc(NC(=O)CN3CCN(c4ccc(Cl)cc4)CC3)cc2)cc1  IC50 (cell growth or viability, MTT): 38.7 µM
O=c1[nH]nc(O)c2c(-c3ccc(Br)cc3)c3n(c12)CCn1cccc1-3  IC50 (cell growth or viability, MTT; 48 h): 58 µM
Cc1ccc2c(=O)n(Cc3cn(Cc4ccc(/C=C/C(=O)NO)cc4)nn3)cnc2c1  IC50 (cell growth or viability, MTT; 48 h): 15.3 µM
O=C(CN1CCN(c2ccc(Cl)cc2)CC1)Nc1ccc(C(=O)C=Cc2ccco2)cc1  IC50 (cell growth or viability, MTT): 4.8 µM
COc1cc(/C=C/C(=O)CC(=O)/C=C/c2ccc(O)c(OC)c2)ccc1O  IC50 (cell growth or viability, MTT; 48 h): 11 µg/mL
COc1cc2c(NC3CCN(C(C)C)CC3)nc(C3CCCCC3)nc2cc1OCCCN1CCCC1  IC50 (in-cell western, refers to: H3K9me2; 48 h): 0.081 ± 0.009 µM
COc1ccccc1C(=O)N[C@H](C(=O)Nc1ccc(C(=O)NO)cc1)c1ccccc1  IC50 (cell growth or viability, MTT; 48 h): 6.67 µM

A few entries again:
CC(=O)OC[C@@H]1O[C@H](n2cc(Cn3ccc4nc(-c5ccc(F)cc5)cc(=O)n43)nn2)[C@@H](OC(C)=O)[C@H](OC(C)=O)[C@H]1OC(C)=O (stereo in doubt)  IC50 (cell growth or viability, MTT; 72 h): 54.9 µM
O=C(/C=C/c1ccc(Cn2cc(Cn3cnc4cc(F)ccc4c3=O)nn2)cc1)NO  IC50 (cell growth or viability, MTT; 48 h): 7.17 µM
COc1cc(/C=C/C(=O)N2CCC=CC2=O)cc(OC)c1OC  IC50 (cell growth or viability, MTT): 3.4 µM
